{"data": "Measurements gathered from unrelated publications", "note": "Protocols differ between the studies behind these lines. Values joined by “and” are separate records of one study, mostly repeats; a detail may differ. ± marks the error that the study gave."}
{"SMILES": "CC[C@H](C)[C@@H]1NC(=O)[C@@H]2CCCN2C(=O)[C@H](CC(C)C)NC(=O)[C@H](CC(C)C)NC(=O)CNC(=O)[C@@H](NC(=O)[C@@H](NC(=O)[C@H](CC(=O)O)NC(=O)CNC(=O)[C@@H](NC(=O)[C@H](C)NC(=O)CNC(=O)[C@H](CCCCN)NC(=O)[C@H](CC(C)C)NC(=O)[C@H](CC(C)C)NC(=O)[C@H](CCCCN)NC(=O)CNC(=O)[C@@H](NC(=O)[C@@H](N)CC(C)C)C(C)C)C(C)C)C(C)C)CSSC[C@@H](C(=O)O)NC1=O", "test": "RNA-seq, item: Tnfrsf1b", "system": "mouse, traumatic brain injury model, frontal cortex and hippocampus", "conditions": "dose not given", "how to read": "baseline: TBI alone", "measurement": "log2 fold change", "value": -2.41}
{"SMILES": "CN1CCN(S(=O)(=O)c2cc([N+](=O)[O-])ccc2N(CCOS(C)(=O)=O)CCOS(C)(=O)=O)CC1", "system": "NSG mice, sample CD PDX", "conditions": "intraperitoneal, 25 mg/kg weekly x3", "how to read": "baseline: treated over vehicle", "measurement": "EFS ratio (T/C)", "value": 8.9}
{"SMILES": "Cc1cn(-c2cc(NC(=O)c3ccc(C)c(Nc4nccc(-c5cccnc5)n4)c3)cc(C(F)(F)F)c2)cn1", "system": "human patients", "conditions": "dose not given, baseline, treated group", "how to read": "direction not given", "measurement": "ADAS-Cog score", "value": "27.9 ± 7.2"}
{"SMILES": "CCCCCCCCCC(=O)N[C@@H](Cc1c[nH]c2ccccc12)C(=O)N[C@H](CC(N)=O)C(=O)N[C@@H](CC(=O)O)C(=O)N[C@@H]1C(=O)NCC(=O)N[C@@H](CCCN)C(=O)N[C@@H](CC(=O)O)C(=O)N[C@H](C)C(=O)N[C@@H](CC(=O)O)C(=O)NCC(=O)N[C@H](CO)C(=O)N[C@@H]([C@H](C)CC(=O)O)C(=O)N[C@@H](CC(=O)c2ccccc2N)C(=O)O[C@@H]1C", "test": "calcein leakage", "system": "DOPC/DOPG/CHOL liposomes", "conditions": "concentration not given, with: 20 wt% PEG-8000", "measurement": "fusion time constant", "value": "24 ± 10 min"}
{"SMILES": "CS(=O)(=O)c1ccc(-c2nnc(/C=C/c3nnc(-c4ccc(C#N)cc4)o3)n2-c2ccccc2Cl)nc1", "test": "RNA-seq GSEA, item: HALLMARK_NOTCH_SIGNALING", "system": "organoids, small intestinal, Apc Q1405X, mouse", "conditions": "dose not given, knockout organoids", "how to read": "baseline: DMSO, direction not given", "measurement": "normalized enrichment score", "value": -1.36}
{"SMILES": "Cc1cn([C@H]2O[C@@H](CO[P@@](=O)(N[C@@H](C)C(=O)OC(C)C)Oc3ccccc3)[C@H](O)[C@H]2F)c(=O)[nH]c1=O", "system": "adults with chronic hepatitis B", "conditions": "10 mg, day 28", "how to read": "baseline: baseline", "measurement": "change in HBV DNA", "value": "2.78 log10 IU/mL"}
{"SMILES": "N#CN=C(NCCCc1c[nH]cn1)NCC1CC1", "test": "antinociception, hot plate test", "system": "rat", "conditions": "intracerebroventricular, 5 min", "measurement": "ED50", "value": "86.6 nmol"}
{"SMILES": "C=CC(=O)Nc1cc(Nc2ncc(Cl)c(Nc3ccccc3C(=O)C(=O)N(C)C)n2)c(OC)cc1N1CCN(C)CC1", "test": "RECIST v1.1 best response", "system": "human EGFR T790M NSCLC", "conditions": "oral, 200 mg/day, per-protocol set", "measurement": "patients with stable disease", "value": "16.7%"}
{"SMILES": "O=c1cc(-c2ccccc2)oc2cc(O)c(O)c(O)c12", "system": "rat plasma 10%", "conditions": "100 µg/mL, with: OS 1 µg/mL", "measurement": "inhibition of OS hydrolysis", "value": "> 50%"}
{"SMILES": "Cc1cccc(C)c1NC(=O)C1CCCCN1 (stereo not drawn)", "system": "Sprague-Dawley rat, male", "conditions": "intrathecal, 30 mM, 10 min", "measurement": "motor block", "value": "12 ± 7.8 % MPE"}
{"SMILES": "CC(=O)c1c(C)c2cnc(Nc3ccc(C4CCN(CCS(C)(=O)=O)CC4)cn3)nc2n(C2CCCC2)c1=O", "test": "tumour growth", "system": "rat, MCF7 breast cancer model", "conditions": "oral, 80 mg/kg twice daily, 28 days", "measurement": "T/C", "value": "-56%"}
{"SMILES": "CCCCC1(CCCC)CN(c2ccccc2)c2cc(SC)c(OCC(=O)N[C@@H](C(=O)NCC(=O)O)c3ccccc3)cc2S(=O)(=O)C1", "test": "item: HDL cholesterol", "system": "human, serum", "conditions": "20 mg once daily, day 2", "measurement": "serum HDL-C", "value": "51.8 mg/dL"}
{"SMILES": "COc1cc2nccc(Oc3ccc(NC(=O)NC4CC4)c(Cl)c3)c2cc1C(N)=O", "tested on": "human coronavirus OC43", "test": "virus-induced cell killing", "system": "MRC-5", "conditions": "maximum over 10 doses", "measurement": "maximum inhibition", "value": "0%"}
{"SMILES": "CCCCCCCCCCCCCCCC(=O)N[C@H]1C[C@@H](O)[C@@H](O)NC(=O)[C@@H]2[C@@H](O)[C@@H](C)CN2C(=O)[C@H]([C@@H](C)O)NC(=O)[C@H]([C@H](O)[C@@H](O)c2ccc(O)cc2)NC(=O)[C@@H]2C[C@@H](O)CN2C(=O)[C@H]([C@@H](C)O)NC1=O", "test": "calcein leakage", "system": "DOPC/DOPG/CHOL liposomes", "conditions": "concentration not given, with: 40 mM CaCl2", "measurement": "fusion time constant", "value": "1 ± 1 min"}
{"SMILES": "C[C@]1(CO)Cc2ncn(-c3ccc(C#N)c(Cl)c3)c2C(=O)O1", "test": "aldosterone synthesis, inhibitor, item: potassium", "system": "healthy Japanese adults, urine", "conditions": "3 mg, 0-24 h after first dose, multiple rising dose", "measurement": "urinary excretion", "value": "39.4 mmol"}
{"SMILES": "COc1ccc(CCC2CCCC(CCc3ccc(OC)cc3)N2C[C@@H](O)CO)cc1.Cl (stereo in doubt)", "system": "rat striatal slices", "conditions": "10 µM, 30 min, no methamphetamine", "measurement": "DOPAC overflow", "value": "159 ± 29.4 pg/30 mL/mg"}
{"SMILES": "O=S(=O)(O)C(F)(F)C(F)(F)C(F)(F)C(F)(F)C(F)(F)C(F)(F)C(F)(F)C(F)(F)F", "test": "RNA-seq pathway analysis, item: cholesterol biosynthesis genes", "system": "liver spheroids", "conditions": "concentration not given, 24 h and 10 d", "measurement": "gene expression", "value": "decreased"}
{"SMILES": "C[C@H]1O[C@@H](O[C@H]2CC[C@@]3(C)[C@@H](CC[C@]4(C)[C@@H]3C=C[C@]35OC[C@@]6(CCC(C)(C)C[C@H]63)[C@@H](O)C[C@]54C)[C@]2(C)CO)[C@H](O)[C@@H](O[C@@H]2O[C@H](CO)[C@@H](O)[C@H](O)[C@H]2O)[C@H]1O", "test": "H&E staining", "system": "Mus musculus, chronic-plus-binge ethanol-fed, AAV8-TBG-Null vector, liver", "conditions": "oral, high dose", "how to read": "baseline: section", "measurement": "adipose area", "value": "11.2% and 11.4% and 13.2% and 11.3% and 16.2% and 12.4% and 15.9%"}
{"SMILES": "O=C(O)/C=C/C(=O)O.Oc1cccc2[nH]cc(CCNCc3ccccc3)c12", "system": "C57BL/6J mice", "conditions": "subcutaneous, 10 mg/kg", "how to read": "baseline: pre-session baseline", "measurement": "body temperature change", "value": "-0.4 ± 0.2 °C"}
{"SMILES": "CC[C@H](C)C[C@H](C)CCCCCCCCC(=O)N[C@H]1C[C@@H](O)[C@@H](NCCN)NC(=O)[C@@H]2[C@@H](O)CCN2C(=O)[C@H]([C@H](O)CCN)NC(=O)[C@H]([C@H](O)[C@@H](O)c2ccc(O)cc2)NC(=O)[C@@H]2C[C@@H](O)CN2C(=O)[C@H]([C@@H](C)O)NC1=O", "test": "calcein leakage", "system": "DOPC/CHOL liposomes", "conditions": "concentration not given, with: 20 wt% PEG-8000", "measurement": "fusion time constant", "value": "7 ± 2 min"}
{"SMILES": "CN(C)Cc1c(C(=O)NCCOc2ccc(C(=O)NO)cc2)oc2ccccc12", "tested on": "human coronavirus OC43", "test": "virus-induced cell killing", "system": "MRC-5", "conditions": "maximum over 10 doses", "measurement": "maximum inhibition", "value": "0%"}
